Assay results gathered from unrelated publications.
Compare with care: the assays were run in different laboratories. “And” joins repeats or separate records; there may be more than shown. pEC50: −log10 of the molar value. Values after ≈ are worked out from the molar mass of the structure shown.

COc1ccc(C2=[N+]([O-])c3ccccc3N3CC(C)(C)CN=C23)cc1  MIC50 (Clostridium perfringens; microbial growth): 4 µg/mL (≈ 11.9 µM)
COc1cc(Cc2cnc(N)nc2N)cc(OC)c1OC.O=c1[nH]cc(F)c(=O)[nH]1  MBC (Shigella dysenteriae; broth microdilution; 48 h): 16 µg/mL
COC(=O)c1ncn(C2OC(COC(=O)c3ccccc3)C(OC(=O)c3ccccc3)C2OC(=O)c2ccccc2)c1C(=O)OC (stereo not shown)  IC50 (Severe acute respiratory syndrome coronavirus; viral replication; Vero; 48 h): 23 µg/mL (≈ 36.6 µM)
Oc1ccc(Br)cc1-c1nc2cc(C(F)(F)F)ccc2s1  replicon activity (SARS-CoV-2 replicon; N-HiBiT luminescence; HeLa; 2 µM; baseline: DMSO): 82.8% and 80% and 57.5% and 43.4% and 60.3% and 85.6%
CC(/C=C/C(O)=C1/C(=O)CNC1=O)=C\[C@@H](C)[C@H]1O[C@@]2(C)O[C@H](C[C@@H]3O[C@@]32CO)[C@@H]1C  MIC (Bacillus anthracis; 34F2): 6.25 µM
Cc1ccc(NS(=O)(=O)c2c(C(=O)N3CCCCCC3)c(C)n(C)c2C)c(Cl)c1  infection (Vaccinia virus; viral infection; HaCaT; 0.412 µM, 36 h; baseline: untreated): 68.6% and 52.9% and 53.4%
CC(C)CC(C(=O)N1CC2(CC1C#N)C(=O)Nc1ccccc12)N(C)C(=O)c1cc2c(F)cc(F)c(F)c2[nH]1 (stereo not shown)  inhibition (SARS-CoV-2; viral replication, infectious virus; Vero E6; 0.3 µM): 100%
CC[C@H](C)[C@H](NC(=O)[C@H](CCCCN)NC(=O)[C@H](CCCCN)NC(=O)[C@H](CC(C)C)NC(=O)[C@H](Cc1c[nH]c2ccccc12)NC(=O)CN)C(=O)NCC(=O)N[C@@H](CCCCN)C(=O)N[C@@H](CCCCN)C(=O)N[C@H](C(=O)N[C@@H](CCC(=O)O)C(=O)N[C@@H](CCCNC(=N)N)C(=O)N[C@H](C(=O)NCC(=O)N[C@@H](CCC(N)=O)C(=O)N[C@@H](Cc1c[nH]cn1)C(=O)N[C@H](C(=O)N[C@@H](CCCNC(=N)N)C(=O)N[C@@H](CC(=O)O)C(=O)N[C@@H](C)C(=O)N[C@H](C(=O)N[C@H](C(=O)N[C@@H](CCC(N)=O)C(=O)N[C@H](C(=O)N[C@H](C(=O)NCC(=O)N[C@H](C(=O)N[C@@H](C)C(=O)N[C@@H](CCC(N)=O)C(=O)N[C@@H](CCC(N)=O)C(=O)N[C@@H](C)C(=O)N[C@@H](C)C(=O)N[C@@H](CC(N)=O)C(=O)N[C@H](C(=O)N[C@@H](C)C(=O)N[C@@H](C)C(=O)N[C@H](C(=O)N[C@@H](CC(C)C)C(=O)N[C@@H](CCCCN)C(N)=O)[C@@H](C)O)C(C)C)C(C)C)[C@@H](C)CC)[C@@H](C)O)[C@@H](C)CC)[C@@H](C)O)[C@@H](C)O)C(C)C)[C@@H](C)CC  MIC (Proteus mirabilis; DSM 4479, CAMHB): > 1020 µg/mL
CC[C@H](C)[C@H](NC(C)=O)C(=O)N[C@@H](CO)C(=O)NCC(=O)N[C@H](C(=O)N[C@@H](CC(N)=O)C(=O)N[C@@H](C)C(=O)N[C@@H](CO)C(=O)N[C@H](C(=O)N[C@H](C(=O)N[C@@H](CC(N)=O)C(=O)N[C@H](C(=O)N[C@@H](CCC(N)=O)C(=O)N[C@@H](CCCCN)C(=O)N[C@@H](CCC(=O)O)C(=O)N[C@H](C(=O)N[C@@H](CCC(=O)O)C(=O)N[C@@H](CCCNC(=N)N)C(=O)N[C@@H](CC(C)C)C(=O)N[C@@H](CC(N)=O)C(=O)N[C@@H](CCCCN)C(=O)N[C@H](C(=O)N[C@@H](C)C(=O)N[C@@H](CCCCN)C(=O)N[C@@H](CCC(=O)O)C(=O)N[C@@H](CC(C)C)C(=O)N[C@@H](CC(N)=O)C(=O)N[C@@H](CCCCN)C(=O)N[C@@H](CO)C(=O)N[C@@H](CC(C)C)C(=O)N[C@H](C(=O)N[C@@H](CC(=O)O)C(=O)N[C@@H](CC(C)C)C(=O)N[C@@H](CCC(N)=O)C(=O)N[C@@H](CCC(=O)O)C(=O)NCC(=O)NCC(=O)NCC(=O)N[C@@H](CO)C(=O)NCC(=O)NCC(=O)NCC(=O)N[C@@H](CSSC[C@H](NC(=O)CNC(=O)CNC(=O)CNC(=O)[C@H](CO)NC(=O)CNC(=O)CNC(=O)CNC(=O)[C@H](CCC(=O)O)NC(=O)[C@H](CCC(N)=O)NC(=O)[C@H](CC(C)C)NC(=O)[C@H](CC(=O)O)NC(=O)[C@@H](NC(=O)[C@H](CC(C)C)NC(=O)[C@H](CO)NC(=O)[C@H](CCCCN)NC(=O)[C@H](CC(N)=O)NC(=O)[C@H](CC(C)C)NC(=O)[C@H](CCC(=O)O)NC(=O)[C@H](CCCCN)NC(=O)[C@H](C)NC(=O)[C@@H](NC(=O)[C@H](CCCCN)NC(=O)[C@H](CC(N)=O)NC(=O)[C@H](CC(C)C)NC(=O)[C@H](CCCNC(=N)N)NC(=O)[C@H](CCC(=O)O)NC(=O)[C@@H](NC(=O)[C@H](CCC(=O)O)NC(=O)[C@H](CCCCN)NC(=O)[C@H](CCC(N)=O)NC(=O)[C@@H](NC(=O)[C@H](CC(N)=O)NC(=O)[C@@H](NC(=O)[C@@H](NC(=O)[C@H](CO)NC(=O)[C@H](C)NC(=O)[C@H](CC(N)=O)NC(=O)[C@@H](NC(=O)CNC(=O)[C@H](CO)NC(=O)[C@@H](NC(C)=O)[C@@H](C)CC)[C@@H](C)CC)C(C)C)C(C)C)[C@@H](C)CC)[C@@H](C)CC)C(C)C)[C@@H](C)CC)C(N)=O)C(N)=O)[C@@H](C)CC)C(C)C)[C@@H](C)CC)[C@@H](C)CC)C(C)C)C(C)C)[C@@H](C)CC  fold change IC50 vs corresponding monomer (SARS-CoV-2 Wuhan; viral replication; VeroE6/TMPRSS2 cells; baseline: corresponding monomer): 0.341
[O-][N+]1=C(c2ccc(Cl)cc2)C2=NCCCCN2c2ccccc21  MIC90 (Clostridium perfringens): 32 µg/mL (≈ 98.2 µM)
NNC(=O)c1ncn(C2OC(CO)C(O)C2O)c1C(=O)NN (stereo not shown)  IC50 (Severe acute respiratory syndrome coronavirus; viral replication; Vero; 48 h): 35 µg/mL (≈ 111 µM)
COC(=O)c1cc2c(=O)n3ccccc3nc2n1Cc1ccccc1  inhibition (Severe acute respiratory syndrome coronavirus 2; viral replication; Vero; 0.1 µM): 57.3%
O=C(O)c1ncn(CCO)c1C(=O)O  IC50 (Mammarenavirus lassaense; viral replication, inhibitor; Vero; 48 h): 4 µg/mL (≈ 20 µM)
O=[N+]([O-])c1ccc(-n2nc(-c3ccccc3)cc2-c2ccc(F)cc2)c([N+](=O)[O-])c1  virus titre (Japanese encephalitis virus; Neuro2a, SA14-14-2; 15 µM, 96 h): 5.25 log10 TCID50
[O-][N+]1=C(c2ccccc2)C2=NCCCN2c2ncccc21  MIC90 (Clostridium perfringens): 1 µg/mL (≈ 3.59 µM)
O=[N+]([O-])c1ccc(-n2nc(-c3ccc(F)cc3)cc2-c2ccc(F)cc2)c([N+](=O)[O-])c1  viral titre reduction (Japanese encephalitis virus; plaque; SA14-14-2; 1 µM, 72 h): ~67%
CC(=O)OC1(C)CC(C=C(C)CCC=C(C)C)OC2(C=C(CO)C3CC(=O)C(C)=CC3O2)C1 (stereo not shown)  pEC50 (SARS-CoV-2 Omicron BA.2; viral replication, dsRNA staining; Calu-3): 6.15
COC(=O)CCCC1C2CCCN3CCCC(CN1C(=O)c1ccc(Cl)cc1)C23 (stereo not shown)  selectivity index (Ebola virus; EBOV GP pseudotyped HIV; baseline: CC50 over IC50): > 2.27
O=S(=O)(O)c1c2ccccc2c(-c2c3nc(c(-c4c5ccccc5c(S(=O)(=O)O)c5ccccc45)c4ccc([nH]4)c(-c4c5ccccc5c(S(=O)(=O)O)c5ccccc45)c4nc(c(-c5c6ccccc6c(S(=O)(=O)O)c6ccccc56)c5ccc2[nH]5)C=C4)C=C3)c2ccccc12  viral titre (vaccinia virus; CV-1, WR; 50 µg/mL, 16 h): 580000 PFU/mL
[O-][N+]1=C(Cc2ccccc2)C2=NCCCN2c2ccccc21  MIC90 (Clostridium perfringens): > 32 µg/mL
Cc1ccc(N2CC3CC(C2)N3)cc1C(=O)NC1(c2ccc3c4c(cccc24)C(=O)N3C)CC1  inhibition (SARS-CoV-2; viral replication; Vero C1008, wild type; 0.05144 µM): 70%
CN[C@@H]1[C@H](O)[C@H](NC)[C@H]2O[C@]3(O)[C@H](O[C@@H]2[C@H]1O)O[C@H](C)C[C@]3(O)CNCc1ccc(F)cc1  inhibition zone diameter (Legionella pneumophila; ATCC 33153; 40 µg per disc, 48 h): 0 mm

Excerpt of the above:
O=[N+]([O-])c1ccc(-n2nc(-c3ccccc3)cc2-c2ccc(F)cc2)c([N+](=O)[O-])c1  virus titre (Japanese encephalitis virus; Neuro2a, SA14-14-2; 15 µM, 96 h): 5.25 log10 TCID50
COc1cc(Cc2cnc(N)nc2N)cc(OC)c1OC.O=c1[nH]cc(F)c(=O)[nH]1  MBC (Shigella dysenteriae; broth microdilution; 48 h): 16 µg/mL
COc1ccc(C2=[N+]([O-])c3ccccc3N3CC(C)(C)CN=C23)cc1  MIC50 (Clostridium perfringens; microbial growth): 4 µg/mL (≈ 11.9 µM)
Cc1ccc(N2CC3CC(C2)N3)cc1C(=O)NC1(c2ccc3c4c(cccc24)C(=O)N3C)CC1  inhibition (SARS-CoV-2; viral replication; Vero C1008, wild type; 0.05144 µM): 70%
